Assay results from different studies.
Parts stem from different laboratories: compare values within a part only.

Block 1
Target: Beta-1 adrenergic receptor (ADRB1, Homo sapiens, UniProt P08588)
Chain of UniProt P08588 (whole entry, looked up): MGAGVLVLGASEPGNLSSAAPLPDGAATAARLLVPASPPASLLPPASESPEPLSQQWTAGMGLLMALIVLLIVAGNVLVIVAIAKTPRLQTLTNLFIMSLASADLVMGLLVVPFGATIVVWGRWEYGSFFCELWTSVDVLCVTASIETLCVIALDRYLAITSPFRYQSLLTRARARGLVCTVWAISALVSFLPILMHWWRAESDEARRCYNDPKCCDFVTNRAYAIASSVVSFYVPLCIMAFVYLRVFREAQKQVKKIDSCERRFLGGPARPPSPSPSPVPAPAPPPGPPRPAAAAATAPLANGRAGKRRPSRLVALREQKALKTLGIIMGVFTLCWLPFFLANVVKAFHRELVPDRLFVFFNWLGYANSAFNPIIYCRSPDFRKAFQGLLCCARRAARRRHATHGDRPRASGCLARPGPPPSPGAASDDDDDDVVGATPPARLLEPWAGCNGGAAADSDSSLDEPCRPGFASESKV
Mode: antagonist
`CC(C)NCC(O)c1cc(O)cc(O)c1` (stereo not shown) has an IC50 of ≥ 100 µM.
`COc1ccc(-c2cnc3[nH]nc(-c4ccc(F)cc4C)c3n2)cn1` has an IC50 of ≥ 100 µM.
`N[C@H](C(=O)O)[C@H](O)c1ccc(O)c(O)c1` has an IC50 of 11.2 µM.
`NCCn1cc(C(=O)NCC(O)c2ccccc2C(F)(F)F)nn1` (stereo not shown) gave an IC50 of ≥ 100 µM.
`Nc1nc(N)c2nc(-c3cccc(O)c3)c(-c3cccc(O)c3)nc2n1` gave an IC50 of ≥ 100 µM.
With `COc1ccc(S(=O)(=O)N2CCN(c3ccccc3OC)CC2)cc1OC` the IC50 was ≥ 100 µM.
The IC50 of `Cc1nn(C)c(C)c1CN(Cc1ccc2c(C)cc(=O)oc2c1)C1CC1` is reported as ≥ 100 µM.
`CC#CCn1cc2c3c(cccc31)[C@H](CC(C)C)N[C@H](C(=O)NCCN1CCOCC1)C2` has an IC50 of ≥ 100 µM.
For `O=C(Nc1ccccc1)c1cc2c(nc1O)CC(c1ccco1)CC2=O` (stereo not shown), the IC50 was ≥ 100 µM.
`O=C(O)Cn1cc(-c2cccc(-c3nn4c(=O)cc(N5CCNCC5)nc4s3)c2)cn1` gave an IC50 of ≥ 100 µM.
`CCOC(=O)c1ccc(NC(=O)N2Cc3nc[nH]c3C[C@H]2c2nc(C(C)C)no2)cc1` has an IC50 of ≥ 100 µM.
The IC50 of `CCN(C)c1ccc(C(=O)N2CCC(c3c[nH]c4ccc(C(N)=O)cc34)CC2)cc1` is reported as ≥ 100 µM.
With `C=C(F)c1sc(CNCCCNc2cc(=O)c3ccccc3[nH]2)c(C)c1Br` the IC50 was ≥ 100 µM.
For `COCc1cc(NCC(O)COc2ccc(Cl)c(C)c2)ncn1` (stereo not shown), the IC50 was ≥ 100 µM.
The IC50 of `N[C@H](Cc1cscn1)C(=O)Nc1cccc(-c2nn3c(=O)cc(N4CCNCC4)nc3s2)c1` is reported as ≥ 100 µM.
With `Cc1nnc2n1CCN(c1nc(-c3ccccc3)c3ccccc3n1)C2` the IC50 was ≥ 100 µM.
The IC50 of `OC(COc1ccc(CN2CC(N3CCCCC3)C2)cc1)CN1CCCCC1` (stereo not shown) is reported as ≥ 100 µM.
`O=C(NCC(O)c1ccccc1)c1cnn2c(-c3ccccc3)ccnc12` (stereo not shown) gave an IC50 of ≥ 100 µM.
For `COc1cc(CNC2CCCCCCC2)ccc1OCC(O)CN1CCSCC1` (stereo not shown), the IC50 was ≥ 100 µM.

Block 2
Organism: Sarcocystis neurona
Effect on: parasite growth
Concentration: 10 µM
Time: 96 h
Notes: first screen
For `CC(=O)CC(c1ccccc1)c1c(O)c2ccccc2oc1=O` (stereo not shown), the inhibition was -4.2%.
`CC(=O)OCC[N+](C)(C)C` has an inhibition of -14.4%.
`Cn1c(=O)c2[nH]cnc2n(C)c1=O` gave an inhibition of -4.4%.
`CCCCNC(=O)NS(=O)(=O)c1ccc(C)cc1` has an inhibition of -12.4%.
`CC(C)NCC(O)c1ccc(NS(C)(=O)=O)cc1` (stereo not shown) has an inhibition of -4%.
`CC(C)NCC(O)COc1ccc(COCCOC(C)C)cc1` (stereo not shown) gave an inhibition of -8%.
`C[C@]12CCC(=O)C=C1CC[C@@H]1[C@@H]2[C@@H](O)C[C@@]2(C)[C@H]1CC[C@]2(O)C(=O)CO` has an inhibition of 16.8%.
For `CCN(CC)CC1CCCCN1CC(=O)N1c2ccccc2C(=O)Nc2cccnc21` (stereo not shown), the inhibition was -1.7%.
`CC(C(=O)O)c1ccc(CC2CCCC2=O)cc1` (stereo not shown) gave an inhibition of -8.7%.
The inhibition of `CN(C)CCC=C1c2ccccc2COc2ccccc21` is reported as 10.5%.
With `O=C(O)CCc1nc(-c2ccccc2)c(-c2ccccc2)o1` the inhibition was -10.7%.
With `c1ccc2c(CC3=NCCN3)cccc2c1` the inhibition was -9.8%.

Block 3
Target: Serine/threonine-protein kinase 24 (STK24, Homo sapiens, UniProt Q9Y6E0)
Chain of UniProt Q9Y6E0 (whole entry, looked up): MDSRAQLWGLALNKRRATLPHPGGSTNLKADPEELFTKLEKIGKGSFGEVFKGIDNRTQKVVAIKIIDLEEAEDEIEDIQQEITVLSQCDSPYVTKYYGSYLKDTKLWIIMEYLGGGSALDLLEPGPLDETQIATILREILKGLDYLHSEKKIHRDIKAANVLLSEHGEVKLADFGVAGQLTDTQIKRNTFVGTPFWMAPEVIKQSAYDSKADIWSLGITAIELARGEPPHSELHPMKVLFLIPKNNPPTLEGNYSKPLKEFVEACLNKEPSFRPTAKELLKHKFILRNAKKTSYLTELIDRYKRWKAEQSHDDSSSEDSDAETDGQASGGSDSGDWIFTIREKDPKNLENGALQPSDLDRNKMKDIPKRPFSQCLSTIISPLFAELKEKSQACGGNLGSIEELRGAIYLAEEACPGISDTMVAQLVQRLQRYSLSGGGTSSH
Effect on: enzyme activity
Mode: inhibitor
Concentration: 0.5 µM
Relative to: control
With `O=S(=O)(NCCNC/C=C/c1ccc(Br)cc1)c1cccc2cnccc12` the remaining activity was 72%.
`Oc1ccc(Nc2nc(-c3ccc(Cl)cc3)cs2)cc1` has a remaining activity of 94.1%.
`CCc1[nH]c(-c2ccc(OC)cc2)nc1-c1ccncc1` gave a remaining activity of 93.2%.
The remaining activity of `CC(C)(C)n1nc(Cc2cccc3ccccc23)c2c(N)ncnc21` is reported as 91.3%.
The remaining activity of `Cc1cncc2cccc(S(=O)(=O)N3CCCN(C(=O)CN)C[C@@H]3C)c12` is reported as 92.4%.
With `CC#CC(=O)Nc1cc2c(Nc3ccc(F)c(Cl)c3)ncnc2cn1` the remaining activity was 107%.
`N#CC(=C(N)Sc1ccc(N)cc1)c1ccccc1C(F)(F)F` gave a remaining activity of 89.3%.
The remaining activity of `Cc1cc(Nc2nc(-c3ccccc3)nc3ccccc23)n[nH]1` is reported as 66%.
`CSc1nc(-c2ccnc(N[C@@H](C)c3ccccc3)c2)c(-c2ccc(F)cc2)[nH]1` (racemic) gave a remaining activity of 113%.
`Cc1ccc(NC2=CC(=O)c3sc(C)nc3C2=O)cc1` has a remaining activity of 82.8%.
`Fc1ccc(-c2nc3n(c2-c2ccncc2)CCS3)cc1` has a remaining activity of 94.2%.
`CC[n+]1c(/C=C/N(C)c2ccccc2)n(-c2ccccc2)c2ccc(-c3nc4ccccc4s3)cc21` has a remaining activity of 99.2%.
With `CC(=O)c1ccc(N2CCOCC2)cc1O` the remaining activity was 99%.
With `O=C1NC(=O)C(c2c[nH]c3ccccc23)=C1c1c[nH]c2ccccc12` the remaining activity was 61.5%.
`O=C1Cc2c([nH]c3ccc([N+](=O)[O-])cc23)-c2ccccc2N1` has a remaining activity of 66.4%.
With `COc1ccc(S(=O)(=O)N(CCO)c2ccccc2CN(C)CC=Cc2ccc(Cl)cc2)cc1` the remaining activity was 101%.
The remaining activity of `CCCC(=O)Oc1ccc2[nH]c(C(=O)c3cc4ccccc4[nH]3)cc2c1` is reported as 95.5%.
`Nc1ncnc2c1cnn2-c1ccccc1` gave a remaining activity of 96.3%.
For `Nc1nccc(-c2c(-c3ccc(F)cc3)ncn2C2CCNCC2)n1`, the remaining activity was 98.8%.
`Nc1nc(Nc2ccc(S(N)(=O)=O)cc2)nn1C(=O)c1c(F)cccc1F` has a remaining activity of 76.9%.
`NC(=O)c1ccc(N(C(N)=O)c2c(F)cccc2F)nc1-c1ccc(F)cc1F` gave a remaining activity of 105%.

Block 4
Target: Histamine H1 receptor (HRH1, Homo sapiens, UniProt P35367)
Chain of UniProt P35367 (whole entry, looked up): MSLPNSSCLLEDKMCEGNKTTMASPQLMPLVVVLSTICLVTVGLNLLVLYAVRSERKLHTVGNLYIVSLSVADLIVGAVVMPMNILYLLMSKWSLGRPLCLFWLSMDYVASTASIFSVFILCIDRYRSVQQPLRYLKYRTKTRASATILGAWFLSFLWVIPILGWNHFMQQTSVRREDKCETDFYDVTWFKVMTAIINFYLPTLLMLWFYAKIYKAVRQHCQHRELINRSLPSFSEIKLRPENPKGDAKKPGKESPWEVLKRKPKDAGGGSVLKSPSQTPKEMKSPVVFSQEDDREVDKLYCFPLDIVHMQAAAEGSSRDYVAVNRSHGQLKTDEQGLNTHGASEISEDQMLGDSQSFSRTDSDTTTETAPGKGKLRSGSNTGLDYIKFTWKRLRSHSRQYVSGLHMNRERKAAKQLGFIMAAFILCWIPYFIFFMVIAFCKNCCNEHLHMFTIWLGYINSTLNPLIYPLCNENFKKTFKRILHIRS
Effect on: binding
Technique: radioligand binding
`Cc1c(NC(=O)c2cc(C(N)=O)nc3cc(F)ccc23)c(C(F)(F)F)nn1Cc1ccc(C#N)cc1` has a Ki of > 10 µM.
`CCCCN(CCCC)C(=O)CN1C[C@H](c2cc(OC)c3c(c2)OCO3)[C@@H](C(=O)O)[C@@H]1CC(C)(C)CCC` has a Ki of > 10 µM.
The Ki of `COc1cccc(NC(=O)c2nc3scc(CN(C)Cc4ccccc4)c3c(=O)[nH]2)c1` is reported as 0.019 µM.
